Measured values from different studies.
± gives the spread as reported.
Papain: Papain (Carica papaya, UniProt P00784)

Chains of the proteins cited; added tags and fusions are not shown. Residues count along the entry.
UniProt P00784, 134-345 limits assumed: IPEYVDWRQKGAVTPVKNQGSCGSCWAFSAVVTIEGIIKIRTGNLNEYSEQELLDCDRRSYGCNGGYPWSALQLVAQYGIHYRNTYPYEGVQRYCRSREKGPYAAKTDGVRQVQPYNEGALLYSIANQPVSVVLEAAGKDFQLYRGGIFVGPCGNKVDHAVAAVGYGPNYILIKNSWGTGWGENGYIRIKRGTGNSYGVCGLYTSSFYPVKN
UniProt P04406, whole entry: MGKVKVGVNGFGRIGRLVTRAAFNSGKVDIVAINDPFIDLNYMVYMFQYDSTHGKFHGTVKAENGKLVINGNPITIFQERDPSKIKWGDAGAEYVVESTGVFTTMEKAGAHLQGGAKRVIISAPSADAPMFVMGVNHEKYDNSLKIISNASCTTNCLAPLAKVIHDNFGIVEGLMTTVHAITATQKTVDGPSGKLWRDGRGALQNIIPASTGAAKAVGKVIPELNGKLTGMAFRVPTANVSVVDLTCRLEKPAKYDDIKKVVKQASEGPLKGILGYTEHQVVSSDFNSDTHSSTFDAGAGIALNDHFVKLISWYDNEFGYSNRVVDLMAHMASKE
UniProt P62593, 24-286 limits assumed: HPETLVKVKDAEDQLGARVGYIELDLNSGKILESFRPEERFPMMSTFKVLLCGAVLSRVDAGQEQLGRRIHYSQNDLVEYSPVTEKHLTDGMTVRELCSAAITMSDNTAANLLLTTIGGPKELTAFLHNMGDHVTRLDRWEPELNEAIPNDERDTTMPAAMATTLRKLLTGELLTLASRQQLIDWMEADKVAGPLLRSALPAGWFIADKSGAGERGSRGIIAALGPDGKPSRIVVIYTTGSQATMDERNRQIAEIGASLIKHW
UniProt P12931, whole entry: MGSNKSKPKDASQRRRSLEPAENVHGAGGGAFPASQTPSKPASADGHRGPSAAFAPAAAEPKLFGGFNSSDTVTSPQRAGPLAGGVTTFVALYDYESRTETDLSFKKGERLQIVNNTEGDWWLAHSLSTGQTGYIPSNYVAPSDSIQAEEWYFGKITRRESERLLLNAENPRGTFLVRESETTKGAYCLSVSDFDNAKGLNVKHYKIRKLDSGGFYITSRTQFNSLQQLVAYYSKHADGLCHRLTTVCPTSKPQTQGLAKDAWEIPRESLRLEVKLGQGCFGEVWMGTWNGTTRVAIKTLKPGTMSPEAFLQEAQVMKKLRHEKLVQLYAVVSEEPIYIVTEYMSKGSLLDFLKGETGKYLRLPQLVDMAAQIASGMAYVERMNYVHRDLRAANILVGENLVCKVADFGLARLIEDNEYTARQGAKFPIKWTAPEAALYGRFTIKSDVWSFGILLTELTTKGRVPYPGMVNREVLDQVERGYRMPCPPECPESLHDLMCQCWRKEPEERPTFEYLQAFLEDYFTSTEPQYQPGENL
UniProt Q9NSA0, whole entry: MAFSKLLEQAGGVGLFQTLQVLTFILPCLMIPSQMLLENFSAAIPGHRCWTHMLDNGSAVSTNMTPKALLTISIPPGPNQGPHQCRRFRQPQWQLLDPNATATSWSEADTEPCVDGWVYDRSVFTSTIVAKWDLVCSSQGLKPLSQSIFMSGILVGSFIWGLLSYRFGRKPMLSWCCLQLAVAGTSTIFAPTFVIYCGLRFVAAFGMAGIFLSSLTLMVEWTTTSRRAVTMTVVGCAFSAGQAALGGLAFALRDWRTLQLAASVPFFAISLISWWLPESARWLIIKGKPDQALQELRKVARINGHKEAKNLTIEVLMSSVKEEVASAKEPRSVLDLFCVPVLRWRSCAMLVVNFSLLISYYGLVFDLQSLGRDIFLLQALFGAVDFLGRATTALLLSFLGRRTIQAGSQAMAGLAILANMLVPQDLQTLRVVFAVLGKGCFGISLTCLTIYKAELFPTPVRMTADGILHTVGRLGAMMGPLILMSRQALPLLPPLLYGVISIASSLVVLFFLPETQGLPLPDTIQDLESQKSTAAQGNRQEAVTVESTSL
UniProt P23975, whole entry: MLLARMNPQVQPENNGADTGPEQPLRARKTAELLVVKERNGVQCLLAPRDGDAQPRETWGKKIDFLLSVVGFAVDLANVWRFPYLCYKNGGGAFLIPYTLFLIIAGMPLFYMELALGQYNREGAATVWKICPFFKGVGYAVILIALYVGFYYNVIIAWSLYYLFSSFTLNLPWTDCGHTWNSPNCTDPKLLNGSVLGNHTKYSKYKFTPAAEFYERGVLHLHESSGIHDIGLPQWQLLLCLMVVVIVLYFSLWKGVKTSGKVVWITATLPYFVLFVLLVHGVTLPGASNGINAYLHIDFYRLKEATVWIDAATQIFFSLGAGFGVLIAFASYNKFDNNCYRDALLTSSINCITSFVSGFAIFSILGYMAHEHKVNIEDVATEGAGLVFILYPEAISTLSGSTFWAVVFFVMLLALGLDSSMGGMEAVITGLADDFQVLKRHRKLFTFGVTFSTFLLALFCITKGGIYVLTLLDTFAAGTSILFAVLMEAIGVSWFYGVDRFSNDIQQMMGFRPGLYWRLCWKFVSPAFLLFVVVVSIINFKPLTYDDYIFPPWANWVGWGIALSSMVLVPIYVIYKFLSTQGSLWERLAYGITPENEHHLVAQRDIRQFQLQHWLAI
UniProt P46098, 24-478 limits assumed: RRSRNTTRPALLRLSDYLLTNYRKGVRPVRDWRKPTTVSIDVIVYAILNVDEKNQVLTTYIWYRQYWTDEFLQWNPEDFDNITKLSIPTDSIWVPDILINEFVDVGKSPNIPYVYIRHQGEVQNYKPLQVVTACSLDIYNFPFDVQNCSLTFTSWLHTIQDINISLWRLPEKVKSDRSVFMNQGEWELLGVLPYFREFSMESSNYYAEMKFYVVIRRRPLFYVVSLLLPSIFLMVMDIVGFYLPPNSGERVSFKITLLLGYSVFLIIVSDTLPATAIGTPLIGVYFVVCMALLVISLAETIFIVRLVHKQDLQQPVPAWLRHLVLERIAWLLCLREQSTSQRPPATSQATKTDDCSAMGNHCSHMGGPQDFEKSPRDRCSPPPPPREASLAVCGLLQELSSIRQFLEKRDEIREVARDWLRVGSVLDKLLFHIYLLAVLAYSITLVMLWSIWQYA
UniProt Q8I719, whole entry T618Q: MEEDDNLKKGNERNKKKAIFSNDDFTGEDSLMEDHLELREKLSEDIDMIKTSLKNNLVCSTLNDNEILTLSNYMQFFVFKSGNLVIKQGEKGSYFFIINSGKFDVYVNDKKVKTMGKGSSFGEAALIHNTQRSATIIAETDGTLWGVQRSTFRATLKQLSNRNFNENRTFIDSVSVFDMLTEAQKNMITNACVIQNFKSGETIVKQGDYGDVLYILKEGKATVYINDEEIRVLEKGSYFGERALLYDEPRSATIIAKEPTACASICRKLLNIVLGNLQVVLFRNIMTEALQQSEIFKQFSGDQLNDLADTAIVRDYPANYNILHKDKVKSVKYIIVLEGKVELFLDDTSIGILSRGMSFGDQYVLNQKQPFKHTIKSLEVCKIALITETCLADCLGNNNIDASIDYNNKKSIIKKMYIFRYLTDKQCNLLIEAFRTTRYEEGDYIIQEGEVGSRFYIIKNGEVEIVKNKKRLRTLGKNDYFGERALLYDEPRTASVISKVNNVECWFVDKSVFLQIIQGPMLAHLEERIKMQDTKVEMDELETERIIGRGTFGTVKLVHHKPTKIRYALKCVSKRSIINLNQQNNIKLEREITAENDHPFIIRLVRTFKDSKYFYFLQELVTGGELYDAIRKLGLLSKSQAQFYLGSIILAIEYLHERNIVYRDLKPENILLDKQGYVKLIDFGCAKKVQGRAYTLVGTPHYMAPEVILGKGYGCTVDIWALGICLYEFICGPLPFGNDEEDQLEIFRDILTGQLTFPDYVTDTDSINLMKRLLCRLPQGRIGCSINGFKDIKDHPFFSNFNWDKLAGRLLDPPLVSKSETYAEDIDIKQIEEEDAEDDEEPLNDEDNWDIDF
UniProt P35462, whole entry: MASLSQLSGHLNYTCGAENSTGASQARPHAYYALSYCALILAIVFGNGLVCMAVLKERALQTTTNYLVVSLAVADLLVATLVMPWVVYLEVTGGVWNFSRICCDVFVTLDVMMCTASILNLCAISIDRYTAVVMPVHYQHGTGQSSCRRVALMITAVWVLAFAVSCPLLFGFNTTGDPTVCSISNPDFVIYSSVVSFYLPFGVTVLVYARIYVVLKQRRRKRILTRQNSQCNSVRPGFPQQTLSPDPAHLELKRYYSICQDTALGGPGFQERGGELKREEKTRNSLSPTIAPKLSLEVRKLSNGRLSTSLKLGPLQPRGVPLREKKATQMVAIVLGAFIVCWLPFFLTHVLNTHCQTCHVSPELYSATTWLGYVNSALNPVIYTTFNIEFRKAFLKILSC
UniProt P54753, 633-896 limits assumed: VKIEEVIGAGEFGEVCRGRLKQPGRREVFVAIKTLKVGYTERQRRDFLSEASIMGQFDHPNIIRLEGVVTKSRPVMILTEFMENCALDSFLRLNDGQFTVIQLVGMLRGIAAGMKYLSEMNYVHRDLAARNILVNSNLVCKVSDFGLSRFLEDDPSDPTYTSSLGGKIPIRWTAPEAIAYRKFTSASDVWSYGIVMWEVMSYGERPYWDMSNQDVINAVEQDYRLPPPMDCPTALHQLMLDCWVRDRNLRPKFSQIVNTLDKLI
UniProt P06730, whole entry: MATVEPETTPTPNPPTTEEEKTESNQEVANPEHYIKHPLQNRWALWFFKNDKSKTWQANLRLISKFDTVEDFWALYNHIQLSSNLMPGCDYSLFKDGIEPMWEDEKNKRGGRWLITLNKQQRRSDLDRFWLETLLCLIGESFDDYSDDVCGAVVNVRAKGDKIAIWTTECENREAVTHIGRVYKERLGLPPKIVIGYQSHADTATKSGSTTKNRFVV

For CCNC(=O)C(=O)[C@H](Cc1ccccc1)NC(=O)[C@H]1CCC(=O)N1Cc1ccc(F)cc1, the inhibition was 16.3% (Papain; enzyme activity, inhibitor; 1 µM).
With Cc1ccc(S(=O)(=O)Nc2cccc(C(=O)NC3CCN(c4ncnc5[nH]cnc45)CC3)c2)cc1Cl the viability was 100% (A549-ACE2; 0.01016 µM).
For C#CCCCN1C(=O)[C@@]2(CN2[S@@+]([O-])C(C)(C)C)c2ccccc21 (some centres unmarked), inhibition read “inhibited” (GAPDH (Homo sapiens, UniProt P04406); enzyme activity, inhibitor; concentration not given).
For O=C(Oc1nsnc1N1CCCCC1)N1CCOCC1, inhibition read “no inhibition” (Beta-lactamase TEM (bla, Escherichia coli, UniProt P62593); inhibitor, nitrocefin hydrolysis; up to 300 µM).
The inhibition of CC(C)C(C(=O)N(Cc1ccc(C2CCCCC2)cc1)c1ccc(C(=O)O)cc1)N(C)S(=O)(=O)c1c(F)c(F)c(F)c(F)c1F (centres unmarked) is reported as 36% (SRC (Homo sapiens, UniProt P12931); binding, KINOMEscan; 5 µM).
O=C(NCc1ccc(F)cc1)C(=O)[C@H](Cc1ccccc1)NC(=O)[C@H]1CCC(=O)N1Cc1ccc(F)cc1 has an inhibition of 27.3% (Papain; enzyme activity, inhibitor; 1 µM).
For NC(Cc1cc(I)c(O)c(I)c1)C(=O)O (centres unmarked), the inhibition was 79.5% (SLC22A11 (Homo sapiens, UniProt Q9NSA0); 6-carboxyfluorescein uptake, inhibitor; CHO expressing human OAT4; 25 µM, 5 min, added: 25 µM 6-carboxyfluorescein).
With NCCNCCSc1ccccc1 the logP was -0.6 ± 0.08 (n-octanol/phosphate buffer; 10 µg/mL, pH 7.4).
CCCOC(=O)[C@@]12C[C@@H]1[C@@H](n1cnc3c(NC)nc(C#Cc4ccc(Cl)s4)nc31)[C@H](O)[C@@H]2O has an inhibition of 36 ± 3% (SLC6A2 (Homo sapiens, UniProt P23975); binding, radioligand binding; HEK293; 10 µM, negative means enhanced binding, added: [3H]nisoxetine).
COc1ccc(CN[C@@H]2CO[C@H](C(c3ccccc3)c3ccccc3)C[C@H]2O)cc1 has an inhibition of 18% (HTR3A (Homo sapiens, UniProt P46098); radioligand binding; 10 µM, added: [3H]LY278584).
With O=C(NC1CCN(c2ncnc3[nH]cnc23)CC1)c1cccc(NS(=O)(=O)c2ccc(Cl)cc2)c1 the viability was 93.8% (A549-ACE2; 7.407 µM).
CS(=O)(=O)Cc1onc(-c2cccc(Cl)c2)c1-c1ccnc(N[C@@H]2CCN(Cc3nccs3)C2)n1 has an inhibition of 0 ± 0.5% (cGMP-dependent protein kinase (PKG, Plasmodium falciparum, UniProt Q8I719, T618Q); kinase activity, inhibitor, IMAP; 10 µM, gatekeeper mutant).
For [11CH3]Nc1ccc(C(=O)C2CCN(C3Cc4ccccc4CC3O)CC2)cc1 (single isomer, unassigned), the radioactivity uptake was 2.44 %ID/g (Sprague-Dawley rat, normal, liver; dose not given, 30 min).
COc1ccccc1N1CCN(CCCCN2CCCc3ccccc3C2=O)CC1 gave an inhibition of 98.6% (DRD3 (Homo sapiens, UniProt P35462); radioligand binding; concentration not given, added: [3H]N-methylspiperone).
O=C(CCl)c1ccc2c(Nc3ccccc3)ncnc2c1 has an inhibition of over 80% (EPHB3 (Homo sapiens, UniProt P54753); kinase activity, inhibitor; 2 µM; relative to: DMSO).
Cc1ccc(-c2csc(NP(=O)(O)OCC3OC(n4c[n+](Cc5ccccc5)c5c(=O)[nH]c(NC(=O)c6ccccc6)nc54)C4OC(C)(C)OC34)n2)cc1 (centres unmarked) has a fold change of 1.15 (EIF4E (Homo sapiens, UniProt P06730); refers to: EIF4E; MCF7; concentration not given; relative to: untreated).
For N=C(N)NCCC[C@H](NC(=O)c1ccccc1)C(=O)N[C@@H](CCCCN)C(=O)N[C@@H](C(N)=O)c1ccc(OCc2ccccc2)cc1, the inhibition was 91 ± 5% (Genome polyprotein, NS2B-NS3 protease (West Nile virus, UniProt P06935); enzyme activity, inhibitor, FRET; 50 µM, added: substrate 50 µM).

Excerpt of the above:
COc1ccc(CN[C@@H]2CO[C@H](C(c3ccccc3)c3ccccc3)C[C@H]2O)cc1 has an inhibition of 18% (HTR3A (Homo sapiens, UniProt P46098); radioligand binding; 10 µM, added: [3H]LY278584).
O=C(NCc1ccc(F)cc1)C(=O)[C@H](Cc1ccccc1)NC(=O)[C@H]1CCC(=O)N1Cc1ccc(F)cc1 has an inhibition of 27.3% (Papain; enzyme activity, inhibitor; 1 µM).
For [11CH3]Nc1ccc(C(=O)C2CCN(C3Cc4ccccc4CC3O)CC2)cc1 (single isomer, unassigned), the radioactivity uptake was 2.44 %ID/g (Sprague-Dawley rat, normal, liver; dose not given, 30 min).
